Measured values from different studies.
Protocols differ between the studies behind these lines.
Cell line: PC-3
Read-out: cell growth or viability

SMILES | assay | setting | IC50 [µM]
Cc1nc(N(C)c2ccc3c(c2)/C(=C/c2ccccc2C)C(=O)N3C)c2ccccc2n1 | MTT | – | 4.59
CC(=O)[O][Pt]([NH2])([NH2])([Cl])([Cl])[O]C(=O)CCC(C)C1CCC2C3CCC4CC(O)CCC4(C)C3CCC12C (stereo not drawn) | MTT | – | 2.7
CN(C)c1ccc(/C=C/c2cc(/C=C3\Sc4ccccc4N3CCCN3CCCC3)c3ccccc3[n+]2C)cc1 | MTT | 36 h | 4.89
O=[P@]1(c2ccccc2)CC[C@H](O)CC1 | MTT | 72 h | 88.2
C#CC[C@]1(O)C[C@H](C)N2CCc3cc(OCc4cc(C)cc(C)c4)c(OCc4cc(C)cc(C)c4)cc3[C@@H]2C1 | MTT | – | 0.507
CNC[C@H](O)c1cccc(OCCOCC#Cc2cccc(Cn3c(-c4ccccc4)c(-c4ccccc4)c4c(=N)n([C@H]5CC[C@H](O)CC5)cnc43)c2)c1 | CCK-8 | – | 2.61
C[C@@H]1O[C@H](Nc2cc3cccnc3c3ncccc23)[C@H](O)[C@H](O)[C@H]1O | MTT | 48 h, dark | 7.8
Cc1cc(C)cc(COc2cc3c(cc2OCc2cc(C)cc(C)c2)[C@@H]2C[C@](O)(Cc4cn(Cc5ccc(F)cc5)nn4)C[C@H](C)N2CC3)c1 (single isomer, unassigned) | MTT | – | 0.095
[BH3-][P+]1(c2ccccc2)CCCCC1 | MTT | 72 h | 37
Cc1cc(C)cc(COc2cc3c(cc2OCc2cc(C)cc(C)c2)C2CC(O)CC(C)N2CC3)c1 (stereo not drawn) | MTT | – | 0.57
CCCCCCC(=O)[O][Pt]([NH2])([NH2])([Cl])([Cl])[O]C(=O)CCC(C)C1CCC2C3CCC4CC(O)CCC4(C)C3CCC12C (stereo not drawn) | MTT | – | 0.8
O=C(O)C(Cc1c[nH]cn1)N1C(=O)c2ccc3c4ccc5c6c(ccc(c7ccc(c2c37)C1=O)c64)C(=O)N(CCN1CCCCC1)C5=O (stereo not drawn) | SRB | 72 h | 96.9
CCc1c(C)c2ccc(OC(C)C)c(C)c2oc1=O | MTT | – | 140
O=C1CCP(=O)(c2ccccc2)CC1 | MTT | 72 h | > 100
Cc1nc(Nc2ccc3c(c2)/C(=C/c2ccccc2)C(=O)N3)c2ccccc2n1 | MTT | – | 23.4
Cc1ccc([N+](=O)[O-])cc1S(=O)(=O)N(C)/N=C/c1cnc2ccc(Br)cn12 | – | – | 0.02
[BH3-][P+]1(C2CCCCC2)CCCCC1 | MTT | 72 h | > 100
OCC1OC(Nc2cc3cccnc3c3ncccc23)C(O)C(O)C1O (stereo not drawn) | MTT | 48 h, dark | 1.7
COc1ccccc1/C=C1\C(=O)N(C)c2ccc(N(C)c3nc(C)nc4ccccc34)cc21 | MTT | – | 5.38
[BH3-][P@+]1(c2ccccc2)CC[C@H](O)CC1 | MTT | 72 h | > 100
Cc1nc(N(C)c2ccc3c(c2)/C(=C/c2ccccc2)C(=O)N3C)c2ccccc2n1 | MTT | – | 23.1
CNC[C@H](O)c1cccc(O)c1 | CCK-8 | – | > 200
Cc1nc(Nc2ccc3c(c2)/C(=C/c2ccccc2Cl)C(=O)N3C)c2ccccc2n1 | MTT | – | 27.6
Nc1cc2cccnc2c2ncccc12.[Cl-].[Cl-].[Ru+2].c1cnc2c(c1)ccc1cccnc12.c1cnc2c(c1)ccc1cccnc12 | MTT | dark | > 500

A few entries again:
SMILES | assay | setting | IC50 [µM]
CC(=O)[O][Pt]([NH2])([NH2])([Cl])([Cl])[O]C(=O)CCC(C)C1CCC2C3CCC4CC(O)CCC4(C)C3CCC12C (stereo not drawn) | MTT | – | 2.7
[BH3-][P@+]1(c2ccccc2)CC[C@H](O)CC1 | MTT | 72 h | > 100
O=[P@]1(c2ccccc2)CC[C@H](O)CC1 | MTT | 72 h | 88.2
